Experimental data of several laboratories.
Lines come from different studies, so protocols differ. “And” joins repeats or separate records; there may be more than shown. Numbers after ± are the reported error.
FGFR3: Fibroblast growth factor receptor 3 (FGFR3, Homo sapiens, UniProt P22607)
TACR1: Substance-P receptor (TACR1, Homo sapiens, UniProt P25103)
Genome polyprotein NS3 helicase domain: Genome polyprotein, NS3 helicase domain (Hepatitis C virus genotype 1b, UniProt Q9WMX2)

SMILES = COc1c(C(=O)/C=C/c2ccc(F)cc2)c(O)c(OC)c2occc12; target = Cytochrome P450 1A1 (CYP1A1, Homo sapiens, UniProt P04798); assay = enzyme activity, inhibitor; conditions = 15 min, pH 7.4; IC50 = 0.32 µM
SMILES = COC1=CC(=O)c2cc3c(cc2C1=O)CCCC3(C)C; target = DNA topoisomerase IB (Leishmania donovani, UniProt A0A3Q8IHS4+Q8WQM6); assay = DNA relaxation activity, inhibitor; conditions = with: supercoiled plasmid DNA; IC50 = 91.8 ± 8.2 µM
SMILES = N=C(N)NCCC[C@@H]1NC(=O)[C@H](Cc2c[nH]c3ccccc23)NC(=O)[C@H](CCCNC(=N)N)NC(=O)[C@H](Cc2c[nH]c3ccccc23)NC(=O)[C@H](CCCNC(=N)N)NC(=O)[C@H](Cc2c[nH]c3ccccc23)NC(=O)[C@H](CCCNC(=N)N)NC(=O)[C@H](Cc2c[nH]c3ccccc23)NC(=O)[C@H](CCCNC(=N)N)NC(=O)[C@H](Cc2c[nH]c3ccccc23)NC(=O)[C@H](CCCNC(=N)N)NC(=O)[C@H](Cc2c[nH]c3ccccc23)NC1=O; target = Tyrosine-protein kinase ABL1 (ABL1, Homo sapiens, UniProt P00519); assay = enzyme activity, inhibitor, radiometric; IC50 = 0.91 µM
SMILES = CC(C)NCc1ccc(C[C@@H]2NC(=O)[C@@H](Cc3c[nH]c4ccccc34)NC(=O)[C@H](Cc3ccc(O)cc3)NC(=O)[C@H](NC(=O)[C@@H](N)Cc3ccc(Cl)cc3)CSSC[C@@H](C(=O)N[C@@H](Cc3ccc4ccccc4c3)C(N)=O)NC(=O)[C@H]([C@@H](C)O)NC2=O)cc1; target = Somatostatin receptor type 1 (SSTR1, Homo sapiens, UniProt P30872); assay = ligand displacement, radioligand; conditions = cell membranes; IC50 = > 1 µM
SMILES = CC(=O)Nc1ccc(S(=O)(=O)NCc2nc(-c3ccccc3C)no2)cc1; target = Trypanothione synthetase (Trypanosoma brucei, UniProt Q586P2); assay = enzyme activity, inhibitor; IC50 = 1.7 µM
SMILES = O=C1NC(=O)/C(=C/c2ccc(C(=O)NC[C@@H]3C[C@@H](SC(c4ccccc4)(c4ccccc4)c4ccccc4)CN3C(=O)c3ccccc3C(=O)c3ccc(F)cc3F)cc2)S1; target = Cytosolic phospholipase A2 (PLA2G4A, Homo sapiens, UniProt P47712); assay = enzyme activity, inhibitor, LC-MS, refers to: arachidonic acid; conditions = with: PAPC substrate; IC50 = 1.38 µM and 1.47 µM and 1.88 µM
SMILES = CC(C)(C)COCCCCCN1C[C@H](O)[C@@H](O)[C@H](O)[C@H]1CO; target = Ceramide glucosyltransferase (Ugcg, Mus musculus, UniProt O88693); assay = enzyme activity in cells, inhibitor, fluorescence; IC50 = 5.05 µM
SMILES = Cc1cc(-c2cc(Cl)ccc2OCCn2c(C)nc3cc(C(F)(F)F)cc(C#N)c3c2=O)c2scc(C(=O)NS(C)(=O)=O)c2n1; target = Eukaryotic translation initiation factor 4E (EIF4E, Homo sapiens, UniProt P06730); test system = human cells; conditions = 6 h; IC50 = 0.057 to 0.092 µM
SMILES = CC(C)[C@H](N)C(=O)N[C@H](C(=O)N[C@@H](CCCCN)C(=O)N[C@@H](Cc1c[nH]cn1)C(=O)N[C@@H](Cc1c[nH]cn1)C(=O)N[C@@H](CO)C(=O)N1CCC[C@H]1C(=O)N[C@H](C(=O)O)C(C)C)C(C)C; target = DNA dC->dU-editing enzyme APOBEC-3G (APOBEC3G, Homo sapiens, UniProt Q9HC16); assay = deamination activity, inhibitor, PCR/StuI restriction; conditions = pH 7.4, 37 °C, with: ssDNA substrate 1 fmol/µL; IC50 = > 100 µM
SMILES = NC(=O)[C@@H]1CCCNC(=O)[C@H](Cc2ccc(C(F)(F)F)cc2)NC(=O)[C@H](Cc2ccccc2)NC(=O)[C@H](CC2CCCCC2)NC(=O)/C=C/C(=O)N1; target = Proto-oncogene tyrosine-protein kinase Src, SH3-SH2-kinase domain (SRC, Gallus gallus, UniProt P00523); assay = enzyme activity, inhibitor, Z'-LYTE FRET; conditions = Src residues 83-533, with: 50 µM ATP; IC50 = 0.18 ± 0.04 µM
SMILES = CN1CCN(C(=O)c2ccc(-c3ccc4c(c3)/C(=C/c3ccc(N5CCNCC5)cc3)C(=O)N4)cc2)CC1; target = FGFR3; assay = enzyme activity, inhibitor; IC50 = 0.0565 µM
SMILES = Cc1nc2ccc(Cc3c[nH]c4ncc(C(F)(F)F)cc34)cc2o1; target = FGFR3; assay = enzyme activity, inhibitor; IC50 = 0.634 µM
SMILES = CCC(=O)N1CCN(c2ccc(N(C)C(=O)C(C)(C)c3cc(C(F)(F)F)cc(C(F)(F)F)c3)c(-c3ccccc3C)c2)CC1; target = TACR1; assay = IP1 accumulation, antagonist, HTRF; conditions = 90 min preincubation, with: substance P 10 nM; IC50 = 0.145 µM
SMILES = N#Cc1c(C(F)(F)F)cc(-c2cccs2)nc1SCc1ccc(C(=O)O)cc1; target = Histone acetyltransferase KAT2A (KAT2A, Homo sapiens, UniProt Q92830); assay = enzyme activity, inhibitor, radiometric; IC50 = 14.2 µM
SMILES = COc1ccc(C(=O)Nc2n[nH]c3ccc(NC(=O)C(CCN)c4cccc(Cl)c4)cc23)cc1 (stereo not shown); target = Proto-oncogene tyrosine-protein kinase Src, autophosphorylated (SRC, Gallus gallus, UniProt P00523, Y527F); assay = photo-crosslinking probe binding, competition with HT-1; test system = mammalian cell lysate; conditions = activated kinase; IC50 = 0.27 ± 0.05 µM
SMILES = COc1ccc(-c2csc(N/N=C(\C)c3ccc4c(c3)sc3nc(=O)c(C#N)cn34)n2)cc1; target = DNA gyrase (gyrA/gyrB, Escherichia coli, UniProt P0AES4+P0AES6); assay = enzyme activity, inhibitor; IC50 = 1.09 µM
SMILES = C/C=C/C(=O)Nc1ccc2nc(NCCCCCN(C)C)nc(NCCCCCCN(C)C)c2c1; target = PHD finger protein 1, Tudor-PHD1-PHD2 domains (Homo sapiens, UniProt O43189); assay = methyl-lysine binding, TR-FRET; IC50 = > 100 µM
SMILES = Cc1ccc(S(=O)(=O)N(Cc2csc(-c3ccccc3)n2)c2ccccc2)cc1; target = Trypanothione synthetase (Trypanosoma brucei, UniProt Q586P2); assay = enzyme activity, inhibitor; IC50 = > 100 µM
SMILES = CC(C)C[C@H](NC(=O)[C@H](Cc1c[nH]cn1)NC(=O)[C@H](CC(=O)O)NC(=O)[C@H](CCCNC(=N)N)NC(=O)[C@H](CO)NC(=O)[C@@H]1CCCN1C(=O)[C@H](CCCNC(=N)N)NC(=O)[C@H](CCC(=O)O)NC(=O)[C@H](C)NC(=O)[C@@H](N)Cc1ccc(O)cc1)C(=O)N[C@@H](Cc1ccc(O)cc1)C(=O)N[C@@H](CC(C)C)C(=O)N1CCC[C@H]1C(=O)N[C@@H](CC(C)C)C(=O)N[C@@H](CCC(=O)O)C(=O)N1CCC[C@H]1C(=O)O; target = Mitogen-activated protein kinase 14 (Rattus norvegicus, UniProt P70618, D315S/D316E/E317A); assay = kinase activity, inhibitor, competitive kinase; IC50 = > 100 µM
SMILES = CN(C)CCNC(=O)c1cccc2c(NCCCCc3c(N)nc(N)nc3N)c3ccccc3nc12; target = Muscleblind-like protein 1, with (CUG)12 RNA (Homo sapiens, UniProt Q9NR56); assay = MBNL1-RNA binding, gel mobility shift; conditions = no tRNA, with: (CUG)12 RNA, 1000 nM MBNL1; IC50 = 118 ± 40 µM
SMILES = Brc1ccc(-c2csc(Nc3ccc4c(c3)OCO4)n2)cc1; target = Capsid scaffolding protein, protease domain (Human herpesvirus 8 type P, UniProt Q2HRB6); assay = protease activity, inhibitor; conditions = with: fluorogenic peptide substrate; IC50 = 350 µM
SMILES = O=CCCC(=O)O; target = Hypoxia-inducible factor 1-alpha inhibitor (HIF1AN, Homo sapiens, UniProt Q9NWT6); assay = enzyme activity, inhibitor; IC50 = 4500 µM
SMILES = Cc1oc2nc[nH]c(=O)c2c1C(=O)N(C)CC12CC3CC(CC(C3)C1)C2; target = Trypanothione synthetase (Trypanosoma brucei brucei, UniProt Q586P2); assay = enzyme activity, BIOMOL Green phosphate release; conditions = 1 h preincubation; IC50 = 1 µM and 1.2 µM
SMILES = CCC(NC(=O)C(CC(C)C)NC(=O)CCc1ccccc1)C(=O)C(=O)NCc1cc(OC)cc(OC)c1 (stereo not shown); target = Calpain-2 catalytic subunit (Capn2, Mus musculus, UniProt O08529); assay = enzyme activity, inhibitor; test system = mouse pons-cerebellum membranes; conditions = with: calcium 2 mM; IC50 = 0.078 µM
SMILES = O=C1CO[C@H](CNC(=O)C2(c3ccc(Cl)cc3)CC2)CN1C1Cc2ccccc2C1; target = C-C chemokine receptor type 6 (CCR6, Homo sapiens, UniProt P51684); assay = cell migration; IC50 = 0.158 µM
SMILES = C=CCC(=N)NCCC[C@H](N)C(=O)O; target = Nitric oxide synthase 3 (Nos3, Mus musculus, UniProt P70313); assay = ACh-evoked cGMP accumulation; test system = adult mouse aortic rings; conditions = 1 min, preincubation 25 min, with: ACh 10 µM, IBMX 1 mM; IC50 = 1 to 2 µM and 1.9 µM
SMILES = Cc1nn(-c2ccccc2)nc1CNS(=O)(=O)c1c(C)nn(C)c1C; target = Trypanothione synthetase (Trypanosoma brucei, UniProt Q586P2); assay = enzyme activity, inhibitor; IC50 = 2.6 µM
SMILES = CCCCCCCCCCCCCCCCCC(=O)OCC(O)COC1O[C@H](CS(=O)(=O)O)[C@@H](O)[C@H](O)[C@H]1O (stereo partly shown); target = DNA polymerase (POLA1, Bos taurus, UniProt A0AAA9TD94); assay = enzyme activity, inhibitor, radiometric; IC50 = ~2 µM
SMILES = Cc1ccccc1-c1cc(N2CCCCC2)ccc1N(C)C(=O)C(C)(C)c1cc(C(F)(F)F)cc(C(F)(F)F)c1; target = TACR1; assay = IP1 accumulation, antagonist, HTRF; conditions = 90 min preincubation, with: substance P 10 nM; IC50 = 0.166 µM
SMILES = Cn1c(=O)c2c(nc(CN3CCN(C(=O)C4CC4)CC3)n2Cc2ccccc2)n(C)c1=O; target = Aldehyde dehydrogenase X, mitochondrial (ALDH1B1, Homo sapiens, UniProt P30837); IC50 = > 57 µM
SMILES = CC[C@H](C)[C@H](NC(=O)[C@H](CC(=O)O)NC(=O)[C@H](CC(C)C)NC(=O)[C@H](Cc1c[nH]cn1)NC(=O)[C@@H]1CSSC[C@H](N)C(=O)N[C@@H]([C@@H](C)O)C(=O)N[C@H]2CSSC[C@H](NC(=O)[C@H](CCC(=O)O)NC(=O)[C@H](CCCCN)NC(=O)[C@H](CC(=O)O)NC(=O)[C@H](CCCCN)NC(=O)[C@H](Cc3ccc(O)cc3)NC(=O)[C@H]([C@@H](C)O)NC(=O)[C@H](Cc3ccccc3)NC2=O)C(=O)N[C@@H](C(C)C)C(=O)N[C@@H](Cc2ccc(O)cc2)C(=O)N[C@@H](Cc2ccc(O)cc2)C(=O)N1)C(=O)N[C@H](C(=O)N[C@@H](Cc1c[nH]c2ccccc12)C(=O)O)[C@@H](C)CC; target = Endothelin-1 receptor (EDNRA, Homo sapiens, UniProt P25101); assay = ligand displacement in cells, radioligand; IC50 = > 10 µM
SMILES = C#CCO[C@H](C(=O)O)[C@H](N)C(=O)O (racemic); target = Excitatory amino acid transporter 4 (Rattus norvegicus, UniProt O35921); assay = transporter uptake, inhibitor, radiometric; IC50 = 12.6 µM
SMILES = NC(=S)Nc1ccccc1[N+](=O)[O-]; target = Urea transporter 2 (Rattus norvegicus, UniProt Q62668); assay = urea transport, inhibitor; test system = MDCK expressing rat UT-A1; conditions = 20 min; IC50 = 9300 ± 700 µM
SMILES = CCN(CC)c1ccc(-c2nc3ccc(-c4nc5ccc(C)c(S(=O)(=O)O)c5s4)cc3s2)cc1; target = Genome polyprotein NS3 helicase domain; assay = helicase activity, inhibitor, MBHA; IC50 = 26 ± 21 µM
SMILES = Cc1ccc(/N=C/c2ccc(F)cc2)cc1; target = Xanthine dehydrogenase/oxidase, oxidase form (XDH, Bos taurus, UniProt P80457); assay = enzyme activity, inhibitor; IC50 = ≤ 469 µM
SMILES = O=S(=O)(NCc1csc(-c2ccccc2)n1)c1cc(Cl)ccc1Cl; target = Trypanothione synthetase (Trypanosoma brucei, UniProt Q586P2); assay = enzyme activity, inhibitor; IC50 = 6.3 µM
SMILES = O=C(Nc1cccc(C(=O)Nc2ccc(S(=O)(=O)O)c3cc(S(=O)(=O)O)cc(S(=O)(=O)O)c23)c1)Nc1cccc(C(=O)Nc2ccc(S(=O)(=O)O)c3cc(S(=O)(=O)O)cc(S(=O)(=O)O)c23)c1; target = Genome polyprotein NS3 helicase domain; assay = helicase activity, molecular beacon helicase; conditions = with: DNA substrate; IC50 = 2.6 ± 0.4 µM
